Results from different studies.
Protocols differ between the studies behind these lines. Numbers after ± are the reported error.
Organism: Salmonella typhimurium

Compound | assay | test system | conditions | how to read | endpoint | result
Cc1cc(C(=O)NC(C)(C)COc2cccc3c2C(N)=NS(=O)(=O)N3)cc(C)n1 | Ames test, confirmatory | TA1537 | 333 µg/plate, with: rat liver S9 | baseline: solvent control | revertant ratio | 1.1
COc1cccc(-c2n[nH]c(SCc3ccccn3)n2)c1OC | Ames test, preincubation | TA100 | 0.50 mg/plate, without S9 |  | revertant colonies per plate | 123
CC(=O)N1CCC(C(=O)N2CCN3C(=O)c4cc(-c5ccccc5)ccc4NC(=O)C3C2)CC1 (stereo not drawn) |  | TA98 | 15.8 µg/plate | baseline: vehicle | fold increase in revertants | 0.9
CC(C)N(N=O)C(C)C | mutagenicity, Ames plate incorporation | TA100 | 5000 µg/plate, without S9, methanol |  | revertant colonies per plate | 165 ± 25
OC(CCN1CC=C(c2ccc(F)cc2)CC1)c1ccc(F)c2ccccc12 (stereo not drawn) | genotoxicity, SOS/umu test | TA1535/pSK1002 | 0.004 mg/mL, 4 h, with S9, lower range |  | induction factor | 1
CNC(=O)c1c(N(C)N=O)ncn1C | mutagenicity, Ames plate incorporation | TA98 | 1500 µg/plate, without S9, methanol |  | revertant colonies per plate | 22 ± 8
O=[N+]([O-])c1ccc(N2CCN(CCC(O)c3ccc(F)cc3)CC2)c(C(F)(F)F)c1 (stereo not drawn) | SOS/umu test | TA1535/pSK1002 | 0.004 mg/mL, 4 h, with S9, full range |  | survival | 81%
CC(C)N(C)N=O | mutagenicity, Ames plate incorporation | TA98 | 5000 µg/plate, 3 d, without S9, methanol |  | revertant colonies per plate | 23.7 ± 8
O=[N+]([O-])c1ccc(N2CCC(NCCC(O)c3ccc(F)c4ccccc34)CC2)c(C(F)(F)F)c1 (stereo not drawn) | SOS/umu test | TA1535/pSK1002 | 0.001 mg/mL, 4 h, with S9, lower range |  | survival | 89.5%
N#C[C@@]1(n2ccc(N)nc2=O)O[C@H](CO)[C@@H](O)[C@H]1O |  | TA1535 | 1.2 µM, without S9 |  | viability | 111%
O=[N+]([O-])c1ccc(NC2CCNCC2)c(C(F)(F)F)c1 | SOS/umu test | TA1535/pSK1002, TGA medium | 0.001 mg/mL, 4 h, with: rat liver S9 |  | survival | 110%
CN(N=O)c1ccc(F)cc1 | mutagenicity, Ames plate incorporation | TA1537 | 500 µg/plate, 3 d, without S9, methanol |  | revertant colonies per plate | 8

A few entries again:
Compound | assay | test system | conditions | how to read | endpoint | result
COc1cccc(-c2n[nH]c(SCc3ccccn3)n2)c1OC | Ames test, preincubation | TA100 | 0.50 mg/plate, without S9 |  | revertant colonies per plate | 123
Cc1cc(C(=O)NC(C)(C)COc2cccc3c2C(N)=NS(=O)(=O)N3)cc(C)n1 | Ames test, confirmatory | TA1537 | 333 µg/plate, with: rat liver S9 | baseline: solvent control | revertant ratio | 1.1
